Assay results pooled from the literature.
Protocols differ between the studies behind these lines.
Cell line: CCRF-CEM

SMILES | effect on | method | concentration | time | quantity | result
CNS(=O)(=O)Nc1nccc(Cc2c(C)c3ccc(Oc4ncccc4F)cc3oc2=O)c1F | cell viability | CellTiter-Glo | – | 7 days | IC50 | > 1 µM
CN(C)CCN1CCN(c2ccc3nc(-c4ccc5nc(-c6ccc(C(F)(F)F)cc6)[nH]c5c4)[nH]c3c2)CC1 | cell growth | NCI-60 SRB | 10 µM | 48 h | growth percent | 38.6%
COc1cccc(N2C(=O)C3=Nc4ccccc4CN3C2=S)c1 | cell growth or viability | resazurin | – | 72 h | IC50 | 28.1 µM
Cc1ccc([N+](=O)[O-])cc1S(=O)(=O)N(C)/N=C/c1cnc2ccc(Br)cn12 | cell growth or viability | – | – | – | IC50 | 3.72 µM
CCOc1cncc(-c2ccc(NC(=O)C3(c4ccnc(NS(=O)(=O)C5CC5)n4)CCOCC3)nc2)n1 | cell growth or viability | ATP luminescence | – | 72 h | IC50 | 0.075 µM
C[C@@H](c1ccc2ccccc2c1)N1C(=O)C2=Nc3ccccc3CN2C1=S | cell growth or viability | resazurin | – | 72 h | IC50 | 0.2 µM
O=C(Nc1nnc2c1c(-c1ccc(Cl)cc1)nc1sc(=Cc3ccco3)c(=O)n12)c1ccccc1 (mixture of isomers) | – | NCI60 SRB | 10 µM | – | growth percent | 23.3%
CCCC(CCC)C(=O)OCc1cn(-c2cc3ccccc3oc2=O)nn1 | – | NCI60 single dose | 10 µM | – | growth | 92%
